Published values of several laboratories.
Compare with care: the assays were run in different laboratories. Numbers after ± are the reported error.
Vif/CBFB/ELOB/ELOC: Vif/CBFB/ELOB/ELOC (HIV-1/Homo sapiens)
B1: PPP2R5A D205R/E251K (Homo sapiens, UniProt Q15172-1); chain MSSSSPPAGAASAAISASEKVDGFTRKSVRKAQRQKRSQGSSQFRSQGSQAELHPLPQLKDATSNEQQELFCQKLQQCCILFDFMDSVSDLKSKEIKRATLNELVEYVSTNRGVIVESAYSDIVKMISANIFRTLPPSDNPDFDPEEDEPTLEASWPHIQLVYEFFLRFLESPDFQPSIAKRYIDQKFVQQLLELFDSEDPRERRFLKTVLHRIYGKFLGLRAFIRKQINNIFLRFIYETEHFNGVAELLKILGSIINGFALPLKAEHKQFLMKVLIPMHTAKGLALFHAQLAYCVVQFLEKDTTLTEPVIRGLLKFWPKTCSQKEVMFLGEIEEILDVIEPTQFKKIEEPLFKQISKCVSSSHFQVAERALYFWNNEYILSLIEENIDKILPIMFASLYKISKEHWNPTIVALVYNVLKTLMEMNGKLFDDLTSSYKAERQREKKKELEREELWKKLEELKLKKALEKQNSAYNMHSILSNTSAE
B2: Lqq V toxin, rhodamine on Lys60 (Leiurus quinquestriatus quinquestriatus, UniProt P01481); ends and bridges not checked; also: 125I-labelled, site not given here; rhodamine on Lys60; chain LKDGYIVDDKNCTFFCGRNAYCNDECKKKGGESGYCQWASPYGNACWCYKLPDRVSIKEK(6‑carboxytetramethylrhodamine acetamide)GRCN
B3: PPP2R5A E378R (Homo sapiens, UniProt Q15172-1); chain MSSSSPPAGAASAAISASEKVDGFTRKSVRKAQRQKRSQGSSQFRSQGSQAELHPLPQLKDATSNEQQELFCQKLQQCCILFDFMDSVSDLKSKEIKRATLNELVEYVSTNRGVIVESAYSDIVKMISANIFRTLPPSDNPDFDPEEDEPTLEASWPHIQLVYEFFLRFLESPDFQPSIAKRYIDQKFVQQLLELFDSEDPRERDFLKTVLHRIYGKFLGLRAFIRKQINNIFLRFIYETEHFNGVAELLEILGSIINGFALPLKAEHKQFLMKVLIPMHTAKGLALFHAQLAYCVVQFLEKDTTLTEPVIRGLLKFWPKTCSQKEVMFLGEIEEILDVIEPTQFKKIEEPLFKQISKCVSSSHFQVAERALYFWNNRYILSLIEENIDKILPIMFASLYKISKEHWNPTIVALVYNVLKTLMEMNGKLFDDLTSSYKAERQREKKKELEREELWKKLEELKLKKALEKQNSAYNMHSILSNTSAE
B4: FADD death domain 93-192; chain GEEDLCAAFNVICDNVGKDWRRLARQLKVSDTKIDSIEDRYPRNLTERVRESLRIWKNTEKENATVAHLVGALRSCQMNLVADLVQEVQQARDLQNRSGA
B5: abpA 1-195 (Streptococcus gordonii, UniProt A8AZZ3); sequence looked up; chain MKKVLLSSVVALTLFAAAAPVFSADEATDAARNNDGAYYLQTQFTNADKVNEYLAQHDGEIRAEAAADPAVVAAKAALDAVEGGSHNYGEVKAAYEAAFNNAFNAVRNKYVQQFQATYNNATEQEGKTYIQGETPEQANARYLKRVGAANNQNPAAEDKGATTPASKEEAKKSEAAAKNAGKAAGKALPKTSAVK
B6: E7 (human papillomavirus, UniProt P03129); chain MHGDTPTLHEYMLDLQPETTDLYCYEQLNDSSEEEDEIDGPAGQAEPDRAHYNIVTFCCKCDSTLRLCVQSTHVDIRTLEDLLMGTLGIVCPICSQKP
Chain of UniProt P06400 (whole entry, unmodified, looked up): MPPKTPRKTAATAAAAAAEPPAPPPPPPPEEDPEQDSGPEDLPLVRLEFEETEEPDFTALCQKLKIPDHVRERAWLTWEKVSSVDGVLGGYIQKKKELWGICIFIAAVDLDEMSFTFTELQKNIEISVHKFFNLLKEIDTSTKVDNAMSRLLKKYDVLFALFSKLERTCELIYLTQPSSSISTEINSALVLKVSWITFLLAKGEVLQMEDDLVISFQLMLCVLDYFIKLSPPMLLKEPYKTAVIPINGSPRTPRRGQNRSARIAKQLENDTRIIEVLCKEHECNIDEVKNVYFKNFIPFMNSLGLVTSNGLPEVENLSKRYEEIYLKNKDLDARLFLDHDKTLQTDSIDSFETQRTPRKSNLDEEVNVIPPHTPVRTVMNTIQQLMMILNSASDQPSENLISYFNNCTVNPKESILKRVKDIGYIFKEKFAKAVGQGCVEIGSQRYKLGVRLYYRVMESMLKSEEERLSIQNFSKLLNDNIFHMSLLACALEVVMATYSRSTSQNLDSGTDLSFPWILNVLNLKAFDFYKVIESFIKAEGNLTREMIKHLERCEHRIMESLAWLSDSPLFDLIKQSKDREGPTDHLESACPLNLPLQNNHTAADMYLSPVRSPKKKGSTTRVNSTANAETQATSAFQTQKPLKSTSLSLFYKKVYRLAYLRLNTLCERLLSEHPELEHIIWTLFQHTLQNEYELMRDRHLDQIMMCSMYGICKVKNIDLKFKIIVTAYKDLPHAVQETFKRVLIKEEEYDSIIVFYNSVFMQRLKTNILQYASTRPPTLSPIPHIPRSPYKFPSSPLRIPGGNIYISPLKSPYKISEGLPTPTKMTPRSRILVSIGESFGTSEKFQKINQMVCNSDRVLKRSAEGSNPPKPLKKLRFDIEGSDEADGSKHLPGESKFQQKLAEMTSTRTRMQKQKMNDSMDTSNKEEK
Chain of UniProt P0DUB6 (whole entry, unmodified, looked up): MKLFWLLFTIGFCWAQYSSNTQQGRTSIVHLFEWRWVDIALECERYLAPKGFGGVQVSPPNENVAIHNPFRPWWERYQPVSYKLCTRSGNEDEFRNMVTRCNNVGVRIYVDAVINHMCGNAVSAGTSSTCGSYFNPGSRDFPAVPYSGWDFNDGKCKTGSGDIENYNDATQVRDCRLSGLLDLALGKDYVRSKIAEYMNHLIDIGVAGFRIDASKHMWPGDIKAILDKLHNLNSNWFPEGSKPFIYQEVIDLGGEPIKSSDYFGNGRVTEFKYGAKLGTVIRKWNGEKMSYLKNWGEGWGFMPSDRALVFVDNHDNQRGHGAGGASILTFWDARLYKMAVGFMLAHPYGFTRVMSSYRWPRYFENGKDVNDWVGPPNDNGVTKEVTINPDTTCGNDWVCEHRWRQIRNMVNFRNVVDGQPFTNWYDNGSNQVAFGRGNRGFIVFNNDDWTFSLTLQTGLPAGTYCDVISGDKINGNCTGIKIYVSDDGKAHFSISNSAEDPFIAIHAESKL
Chain of UniProt P35613 (whole entry, unmodified, looked up): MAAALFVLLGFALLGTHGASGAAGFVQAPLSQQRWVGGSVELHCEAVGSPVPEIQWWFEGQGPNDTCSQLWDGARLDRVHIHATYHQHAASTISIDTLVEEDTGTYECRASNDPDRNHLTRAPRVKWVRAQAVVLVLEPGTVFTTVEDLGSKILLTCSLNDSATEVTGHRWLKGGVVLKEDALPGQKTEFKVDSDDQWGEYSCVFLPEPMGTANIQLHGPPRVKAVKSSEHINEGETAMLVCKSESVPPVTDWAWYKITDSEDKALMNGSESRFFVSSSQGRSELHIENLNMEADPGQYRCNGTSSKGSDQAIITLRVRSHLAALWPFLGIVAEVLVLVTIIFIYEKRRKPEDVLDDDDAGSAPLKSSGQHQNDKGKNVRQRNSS
Chain of UniProt P00747 (whole entry, looked up): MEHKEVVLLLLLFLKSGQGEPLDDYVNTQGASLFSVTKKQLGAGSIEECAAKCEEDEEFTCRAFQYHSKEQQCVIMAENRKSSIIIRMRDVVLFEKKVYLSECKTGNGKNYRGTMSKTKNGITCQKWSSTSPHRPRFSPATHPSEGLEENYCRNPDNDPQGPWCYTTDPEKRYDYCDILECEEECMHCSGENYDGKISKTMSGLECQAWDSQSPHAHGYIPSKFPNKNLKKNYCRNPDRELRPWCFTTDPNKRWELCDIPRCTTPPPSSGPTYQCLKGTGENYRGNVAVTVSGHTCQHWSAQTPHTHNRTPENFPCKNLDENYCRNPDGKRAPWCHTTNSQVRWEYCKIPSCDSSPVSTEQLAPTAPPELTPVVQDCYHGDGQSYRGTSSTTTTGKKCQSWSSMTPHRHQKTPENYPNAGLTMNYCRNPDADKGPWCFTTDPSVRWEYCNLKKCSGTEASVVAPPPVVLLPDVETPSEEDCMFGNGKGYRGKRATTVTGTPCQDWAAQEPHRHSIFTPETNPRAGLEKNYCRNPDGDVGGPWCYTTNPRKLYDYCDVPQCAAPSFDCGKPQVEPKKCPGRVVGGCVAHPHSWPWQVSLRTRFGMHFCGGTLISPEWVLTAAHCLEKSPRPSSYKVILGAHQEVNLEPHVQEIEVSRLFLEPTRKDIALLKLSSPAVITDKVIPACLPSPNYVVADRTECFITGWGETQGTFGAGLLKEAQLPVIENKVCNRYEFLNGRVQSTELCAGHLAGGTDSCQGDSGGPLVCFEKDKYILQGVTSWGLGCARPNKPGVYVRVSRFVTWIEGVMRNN
Chain of UniProt P04775 (whole entry, looked up): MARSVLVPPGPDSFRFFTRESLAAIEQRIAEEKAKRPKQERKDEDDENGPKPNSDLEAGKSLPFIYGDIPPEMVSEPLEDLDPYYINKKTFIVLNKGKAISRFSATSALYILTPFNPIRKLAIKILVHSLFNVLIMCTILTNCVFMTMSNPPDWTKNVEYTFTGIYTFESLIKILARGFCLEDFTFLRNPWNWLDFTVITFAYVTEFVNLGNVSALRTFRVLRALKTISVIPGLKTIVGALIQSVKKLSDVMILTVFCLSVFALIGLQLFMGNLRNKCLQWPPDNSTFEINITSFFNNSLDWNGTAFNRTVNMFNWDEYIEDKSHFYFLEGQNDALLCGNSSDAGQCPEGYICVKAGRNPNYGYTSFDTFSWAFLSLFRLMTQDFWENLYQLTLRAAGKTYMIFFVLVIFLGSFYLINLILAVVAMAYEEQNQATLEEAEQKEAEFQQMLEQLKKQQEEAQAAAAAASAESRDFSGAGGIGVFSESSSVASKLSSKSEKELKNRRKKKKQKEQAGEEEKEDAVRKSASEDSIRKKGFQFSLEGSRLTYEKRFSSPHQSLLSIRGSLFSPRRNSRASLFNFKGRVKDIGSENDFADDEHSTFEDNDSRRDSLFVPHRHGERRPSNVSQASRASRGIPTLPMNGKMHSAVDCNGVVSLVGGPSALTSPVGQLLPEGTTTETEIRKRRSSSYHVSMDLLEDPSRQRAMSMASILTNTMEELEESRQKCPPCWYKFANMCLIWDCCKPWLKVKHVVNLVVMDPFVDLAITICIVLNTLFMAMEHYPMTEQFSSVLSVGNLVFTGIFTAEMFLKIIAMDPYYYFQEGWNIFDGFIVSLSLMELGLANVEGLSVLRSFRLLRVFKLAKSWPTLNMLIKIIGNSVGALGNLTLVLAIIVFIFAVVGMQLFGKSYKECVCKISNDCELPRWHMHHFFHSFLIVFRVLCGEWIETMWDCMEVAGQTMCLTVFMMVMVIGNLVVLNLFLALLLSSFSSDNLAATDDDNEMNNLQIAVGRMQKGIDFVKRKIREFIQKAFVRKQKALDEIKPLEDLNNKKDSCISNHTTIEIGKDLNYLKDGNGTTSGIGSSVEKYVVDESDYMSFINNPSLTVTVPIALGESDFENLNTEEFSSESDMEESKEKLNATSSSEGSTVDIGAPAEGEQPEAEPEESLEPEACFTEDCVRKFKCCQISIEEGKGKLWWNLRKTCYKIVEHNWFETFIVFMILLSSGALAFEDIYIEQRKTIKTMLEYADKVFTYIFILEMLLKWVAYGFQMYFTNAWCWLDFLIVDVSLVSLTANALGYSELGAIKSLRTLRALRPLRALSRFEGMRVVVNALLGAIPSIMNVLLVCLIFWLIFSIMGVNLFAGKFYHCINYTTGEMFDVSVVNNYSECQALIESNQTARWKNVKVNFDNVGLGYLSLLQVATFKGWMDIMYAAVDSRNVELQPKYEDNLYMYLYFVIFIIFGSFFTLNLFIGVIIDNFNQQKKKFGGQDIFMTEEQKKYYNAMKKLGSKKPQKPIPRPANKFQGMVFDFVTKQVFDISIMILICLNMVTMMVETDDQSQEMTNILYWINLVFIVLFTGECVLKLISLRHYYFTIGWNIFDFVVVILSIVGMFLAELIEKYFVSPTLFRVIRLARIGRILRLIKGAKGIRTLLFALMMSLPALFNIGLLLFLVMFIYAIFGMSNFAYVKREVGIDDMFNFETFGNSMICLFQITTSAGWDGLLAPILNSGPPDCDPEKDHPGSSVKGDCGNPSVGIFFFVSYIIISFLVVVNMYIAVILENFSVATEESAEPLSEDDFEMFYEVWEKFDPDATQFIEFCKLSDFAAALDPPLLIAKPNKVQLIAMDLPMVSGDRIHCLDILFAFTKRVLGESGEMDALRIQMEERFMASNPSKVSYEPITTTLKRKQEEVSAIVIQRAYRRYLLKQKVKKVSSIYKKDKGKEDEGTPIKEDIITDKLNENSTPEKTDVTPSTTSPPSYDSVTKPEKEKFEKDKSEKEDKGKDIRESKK

For `B1 (PPP2R5A D205R/E251K)`, binding read “binds” (Vif/CBFB/ELOB/ELOC; pull-down).
`B2` gave a Kd of 7 nM (Scn2a whole channel (Rattus norvegicus, UniProt P04775); equilibrium binding; peptide, rat brain synaptosomes).
`B3 (PPP2R5A E378R)`: binding “binds” (Vif/CBFB/ELOB/ELOC; pull-down).
`IgG7 M252K (Equus caballus)` has a Ka of 153000 M⁻¹ (seM lacks anchor domain (Streptococcus equi); SPR).
`LiaS fragment T120A (Enterococcus faecium)` gave a Kd of 121000 ± 6800 nM (LiaR peptide residues 49-57, FITC label (Enterococcus faecium); MST; with: ATP 0.2 mM).
For `EIKESVQTF`, “tetramer-reactive CD8+ T cell count” read 2 (T cell recognition, HLA-B*07:02 tetramer staining; peptide, CD8+ T cells, COVID-19 convalescent human subjects, HLA-B*07:02; dose not given, 5 subjects tested).
The Kd of `B4 (FADD death domain 93-192)` is reported as 94400 ± 21900 nM (sseK2 34-348 N302Y (Salmonella enterica, UniProt Q8ZNP4); ITC; with: UDP).
`GTCTTTAATAATTAAACTAGTGTCTTGACAGATGTAAACAACAGGTATAAAC (dsDNA)`: binding “binds” (niaR 1-174 Y133A (Streptococcus mutans, UniProt Q8DVX8); EMSA; double-stranded DNA, one strand shown).
With `cbpA fragment (Streptococcus pneumoniae)` the Kd was 206 ± 20 nM (CFH 508-567 M497E (Homo sapiens, UniProt P08603); ITC).
For `FAVDAAKAY`, “number of clonotypes” read 13 (peptide, tetramer-reactive CD8+ T cells, unexposed HLA-B*07:02 subjects).
`pilV 29-end (Neisseria meningitidis)` gave an interaction force of 49 pN (BSG 138-325 (Homo sapiens, UniProt P35613); AFM force spectroscopy; pH 7.0, room temperature, NaCl 150 mM).
With `Dengue virus E protein virion, UV-inactivated (Dengue virus serotype 2)` the Kd was 8.8 nM (PLG 376-562 (Homo sapiens, UniProt P00747); BLI).
`H-RNPHLMGIGGGLAGESGETTPK-OH (fnz 370-391 (Streptococcus zooepidemicus))` has a Kd of 10900 nM (FN1 516-608, N-glycans trimmed to GlcNAc (Homo sapiens, UniProt P02751); ITC; peptide; pH 7.4, 25 °C, one-site fit).
For `HSP90 fragment D545A (Plasmodium falciparum)`, “subunits per oligomer” read 2 (itself; mass photometry).
`B5 (abpA 1-195)` has a koff of 0.017 s⁻¹ (AMY1A mature W134A/W203A/Y276A/W284A/W316A/W388A (Homo sapiens, UniProt P0DUB6); SPR; apparent).
The EC50 of `B6 (E7)` is reported as 10 ± 2 nM (RB1 55-787 del245-267/del582-642, phosphorylated by Cdk2-CycA (UniProt P06400); Rb activation, E2F binding increase, activator, fluorescence polarisation; 20 nM, with: E2F^TMR).
`HSP90 fragment R610A (Plasmodium falciparum)`: “subunits per oligomer” 2 (itself; mass photometry).
